Results of several laboratories.
Values joined by “and” are separate records of one study, mostly repeats; a detail may differ. ± gives the spread as reported.
CHRM1: Muscarinic acetylcholine receptor M1 (CHRM1, Homo sapiens, UniProt P11229)
Chain of UniProt P11229 (whole entry, looked up): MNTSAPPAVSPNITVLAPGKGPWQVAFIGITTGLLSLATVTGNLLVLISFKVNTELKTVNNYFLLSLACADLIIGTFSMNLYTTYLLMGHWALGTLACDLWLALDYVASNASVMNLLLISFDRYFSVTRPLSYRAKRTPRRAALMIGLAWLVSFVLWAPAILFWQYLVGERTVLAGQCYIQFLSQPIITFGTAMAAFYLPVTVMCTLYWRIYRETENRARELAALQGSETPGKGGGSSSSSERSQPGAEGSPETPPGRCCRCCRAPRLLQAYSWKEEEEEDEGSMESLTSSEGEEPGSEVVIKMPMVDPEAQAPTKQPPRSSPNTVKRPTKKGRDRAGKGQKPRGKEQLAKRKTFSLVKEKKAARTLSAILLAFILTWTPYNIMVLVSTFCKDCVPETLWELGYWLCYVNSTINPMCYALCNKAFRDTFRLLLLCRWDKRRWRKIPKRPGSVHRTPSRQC

With `CN(C)Cc1cc(OCCC[18F])ccc1Sc1ccccc1N` the tissue uptake was 0.19 ± 0.03 %ID/g (male Sprague-Dawley rats, PCA-treated, remainder of brain; intravenous, dose not given, 60 min).
The microsomal CLint of `Cc1cc(C)c(C#N)c(SCC(=O)c2ccc(Cl)cc2Cl)n1` is reported as 802 µL/min/mg (metabolic stability; human, liver microsomes; 0.5 µM, pH 7.4).
The dose-normalized AUC(0-inf) of `[2H]C([2H])([2H])Oc1cc2c(cc1OC([2H])([2H])[2H])C1CC(=O)C(CC(C)C)CN1CC2` (centres unmarked) is reported as 21.9 ng·h/mL (refers to: deuterated total (α+β)-HTBZ; healthy human volunteers, plasma; oral, 18 mg single dose, standard meal).
`liraglutide` — result for “plasma protein binding”: 99.3% (equilibrium dialysis; human plasma 5% diluted; 10 nM, 4 to 5 h, pH 7.4, 37 °C, inner-outer ratio 50:1).
The oral bioavailability of `CCN1CC(=O)NC(CC(C)C)C(=O)N(C)C(C)C(=O)NC(CC(C)C)C(=O)N2CCCC2C(=O)N(CC2CCOCC2)CC(=O)NC(CC(C)C)C(=O)N(C)C(C)C(=O)NC(C)C(=O)N2CCCC2C1=O` (centres unmarked) is reported as 2% (mouse; with: 1-aminobenzotriazole pretreatment).
Under “change in baseline activity”, `O=c1cc(-c2ccccc2OCc2ccccc2)ncn1C1CCCCC1O` (centres unmarked) is recorded as -0.3 ± 1.7 (CHRM1; allosteric agonist, IP1 accumulation; CHO-M1 cells; 1 µM, unit not given; reference: maximum ACh response).
For `CC[C@H](C)[C@@H]1NC(=O)[C@H](Cc2ccc(O)cc2)NC(=O)[C@@H](N)CSSC[C@@H](C(=O)N2CCC[C@H]2C(=O)N[C@@H](CC(C)C)C(=O)NCC(N)=O)NC(=O)[C@H](CC(N)=O)NC(=O)[C@H](CCC(N)=O)NC1=O`, the AUC(0-t) was 197 ± 96.3 pg·30 min/sample (microdialysis, radioimmunoassay; knock-out male mice lacking compound, hippocampus extracellular fluid; intranasal, 12 µg, total area from zero).
With `CC[C@@H]1CN(C(=O)NCC(F)(F)F)C[C@@H]1c1cnc2cnc3[nH]ccc3n12` the renal clearance was 93.3 mL/min (human, normal renal function, urine and plasma; oral, 15 mg single dose, extended release, fasted, arithmetic mean).
The CL/F of `CC(C)=CCC[C@](C)(O[C@@H]1O[C@H](CO)[C@@H](O)[C@H](O)[C@H]1O)[C@H]1CC[C@]2(C)[C@@H]1[C@H](O)C[C@@H]1[C@@]3(C)CC[C@H](O)C(C)(C)[C@@H]3[C@@H](O[C@@H]3O[C@H](CO)[C@@H](O)[C@H](O)[C@H]3O)C[C@]12C` is reported as 537 ± 96.7 mL/min/kg (Sprague Dawley rat, male, plasma; oral, 25 mg/kg, in white ginseng extract).
`O=c1[nH]cnc2c([C@@H]3O[C@H](CO)[C@@H](O)[C@H]3O)snc12` has a pKa of 9.26 (UV-vis absorption titration).
For `COc1ccc2[nH]c([S+]([O-])Cc3ncc(C)c(OC)c3C)nc2c1` (centres unmarked), the AUC(0-inf) was 813 ± 523 ng·h/mL (healthy Chinese, CYP2C19 intermediate metabolizers, plasma; oral, 20 mg single dose).
The terminal half-life of `O=C1N=C(N2CCOCC2)CN1c1ccc(Cl)cc1` is reported as 99.6 min (beagle dog, both sexes, plasma; oral, 30 mg/kg twice daily, day 5, tablets, after 4 days dosing).
`CCOc1ccc(Cc2cc([C@]34OC[C@](CO)(O3)[C@@H](O)[C@H](O)[C@H]4O)ccc2Cl)cc1` gave a renal clearance of 0.54 mL/min (human, type 2 diabetes, severe renal impairment; oral, 15 mg).
`CC(C)C[C@H](NC(=O)[C@H](CCCNC(=N)N)NC(=O)[C@H](CC(N)=O)NC(=O)[C@H](CC(=O)O)NC(=O)[C@H](CCCNC(=N)N)NC(=O)CNC(=O)CNC(=O)CNC(=S)Nc1ccc(C[C@H]2CN(CC(=O)O)CCN(CC(=O)O)CCN2CC(=O)O)cc1)C(=O)N[C@@H](CC(N)=O)C(=O)N[C@H](C(=O)NCC(=O)NCC(=O)N[C@H](C(=O)N[C@@H](Cc1ccc(O)cc1)C(=O)N[C@@H](Cc1ccccc1)C(=O)N[C@@H](CC(C)C)C(=O)N[C@H](C(=O)N[C@H](C(=O)N[C@@H](CCCNC(=N)N)C(=O)N[C@@H](CCC(N)=O)C(=O)O)[C@@H](C)O)[C@@H](C)O)[C@@H](C)O)C(C)C` [fluorine-18 labelled]: “intact parent radiotracer” 7.7 ± 2.56% (radio-HPLC; mouse (HepG2 tumour-bearing), kidney; intravenous, 5.55 MBq, 1 h).
The plasma concentration of `CC(C)(O/N=C(\C(=O)N[C@H]1CN2CC(C(=O)NCCN3C(=O)c4cc(O)c(O)cc4C3=O)=C(C(=O)O)N2C1=O)c1nc(N)sc1Cl)C(=O)O` is reported as 678 ng/mL (CD-1 mouse, plasma; subcutaneous, 50 mg/kg, 24 h).
`Cn1cc(-c2ccc(COc3ccccc3-c3cc(=O)n(C4CCCCC4O)cn3)c(F)c2)cn1` (centres unmarked) — result for “ΔpEC50 of ACh”: 1.38 ± 0.19 log units (CHRM1; positive allosteric modulator, IP1 accumulation; CHO-M1 cells; 1 µM, 60 min, 37 °C, with: ACh; reference: ACh alone, higher = stronger potentiation).
Under “plasma BUN level”, `CC1(C)Oc2cc3oc(=O)ccc3cc2C[C@@H]1O` is recorded as 9.7 ± 1.8 mg/dL (male CD-1 mouse, plasma; oral gavage, 80 mg/kg daily, 4 weeks).
`C[C@]12CC[C@@H]3c4ccc(O)cc4CC[C@H]3[C@@H]1C[C@@H](O)[C@@H]2O`: “median serum concentration” 0 ng/mL (GC-MS; breast cancer women on NSAI, serum; vaginal, 0.03 mg, 24 h, day 0).
The Css,max total of `Cc1cc(Nc2ncc(Cl)c(Nc3ccccc3S(=O)(=O)C(C)C)n2)c(OC(C)C)cc1C1CCNCC1` is reported as 0.909 µmol/L and 1.12 µmol/L and 1.16 µmol/L and 1.09 µmol/L and 1.14 µmol/L and 1.02 µmol/L and 1.05 µmol/L (human, plasma; oral, 450 mg/day with food, steady state after dose 9).
`COc1cc(C(=O)N2CCC3(CC2)CC(=O)c2c(cnn2C(C)C)C3)cc(-c2ccc(C(=O)O)cc2)n1`: “liver enzyme elevation” 3.5 × ULN (refers to: AST; human; 15 mg twice daily, 7 days).
For `CCCC[C@H](NC(C)=O)C(=O)N[C@H]1CCC(=O)NC[C@@H](C(=O)N[C@@H](Cc2c[nH]c3ccccc23)C(N)=O)NC(=O)[C@H](CCCNC(=N)N)NC(=O)[C@@H](Cc2ccccc2)NC(=O)[C@H](Cc2c[nH]cn2)NC1=O`, the Tmax was 52.8 min (beagle dog, male, plasma; subcutaneous, 40.0 mg/kg daily, day 1).
For `CCCCC1(CCCC)CN(c2ccccc2)c2cc(SC)c(OCC(=O)N[C@@H](C(=O)NCC(=O)O)c3ccccc3)cc2S(=O)(=O)C1`, the AUC(0-t) was 1.97 ng·h/mL (human, plasma; oral, 15 mg once daily, day 14, geometric mean).
Under “time above MIC”, `CN[C@H](CC(C)C)C(=O)N[C@H]1C(=O)N[C@@H](CC(N)=O)C(=O)N[C@H]2C(=O)N[C@H]3C(=O)N[C@H](C(=O)N[C@H](C(=O)O)c4cc(O)cc(O)c4-c4cc3ccc4O)[C@H](O)c3ccc(c(Cl)c3)Oc3cc2cc(c3O[C@@H]2O[C@H](CO)[C@@H](O)[C@H](O)[C@H]2O[C@H]2C[C@](C)(N)[C@H](O)[C@H](C)O2)Oc2ccc(cc2Cl)[C@H]1O` is recorded as 139 min (microdialysis; pig (Danish Landrace), cortical bone; iv infusion, 1000 mg over 100 min, MIC 2.0 µg/mL, with: meropenem co-administered).
For `CC(C)OC(=O)[C@H](CCC(=O)C=[N+]=[N-])NC(=O)OC(OC(=O)C(C)(C)C)c1ccccc1` (some centres unmarked), the remaining compound was 0% (mouse plasma; 10 µM, 60 min, 37 °C).
`CC(C)c1nc(CN(C)C(=O)N[C@H](C(=O)N[C@@H](Cc2ccccc2)C[C@H](O)[C@H](Cc2ccccc2)NC(=O)OCc2cncs2)C(C)C)cs1`: “AUC(0-t) arithmetic mean” 87300 ng·h/mL (healthy men, plasma; 600 mg single dose, with: amenamevir 400 mg).
For `acyl ghrelin (human)`, “initial brain distribution volume” read 1.48 ± 0.55 µL/g (multiple-time regression; Ghsr knockout mice, whole brain; intravenous, dose not given).
The inhibition of `Cn1c(-c2ccccc2)cc2ccccc21` is reported as 33.6% (RAW264.7; NO release, inhibitor, Griess; 50 µM, 20 h, LPS-stimulated).
`O=C(O)C(F)(F)c1cc(F)ccc1Nc1c(Cl)cccc1Cl` gave a remaining compound of 25 ± 0.4% (human liver microsomes; 30 min, with: NADPH).
`CNCc1ccc(-c2cc(-c3nc(-c4ccc(S(=O)(=O)C(C)C)cc4)cnc3N)on2)cc1` gave a CL of 40.7 mL/min/kg (mouse BALB/c female, plasma; intravenous, 6.0 mg/kg, from AUC(0-inf)).
`Cc1ccccc1-c1cc(N2CCN(C)CC2)ncc1N(C)C(=O)C(C)(C)c1cc(C(F)(F)F)cc(C(F)(F)F)c1` gave an exposure accumulation of ~3 fold (healthy human; oral, 100, 300 or 450 mg daily, 7 days; reference: first dose).
For `FNA / CGLSGLGVA-NH2 ([18F]FNA-labelled, C-amide)`, the tumour SUV was 0.21 ± 0.03 (PET imaging; peptide, mouse, intracranial BT-12 glioblastoma xenograft; iv, dose not given).
With `O=C(Cc1cccc(OC(F)(F)F)c1)Nc1ccc(CCCCc2nnc(NC(=O)Cc3ccccn3)s2)nn1` the Cmin was 186 ng/mL (human patients, plasma; oral, 400 mg three times daily fasted, cycle 1 day 15 steady state).
The brain uptake of `TFFYGGSRGRRNNFRTEEY-OH (C-acid)` is reported as 0.032 ± 0.02% (peptide, male C57BL/6J mouse, brain; intravenous, 60 min, vascular blood washed out; reference: injected dose).
With `O=C(c1nc2n(n1)[C@H](c1ccccc1)C[C@@H]2F)C1CC1` the concentration was 199 ng/mL (human, plasma; oral, 75 mg, 24 h, single dose, fasted, healthy volunteers).
For `Cc1ccnc2c1NC(=O)c1cccnc1N2C1CC1`, the AUC(0-8 h) was 5110 ± 3630 ng·h/mL (olive baboon (Papio anubis), non-pregnant, serum; oral, 800 mg, tablet, single dose).
